Assay results from different studies.
A part holds a random share of what one study measured. Substitutions count along the parent as printed.

Study 1 — technique: RNAcompete; form: RNA; medium: in vitro; concentration: 20 nM; notes: 7-mer, probes averaged, single round; baseline: mean of 7-mers; direction: higher = stronger binding
Target: PABPC1L2, full length, GST fusion (mouse, UniProt A0ABA7IW68)
Construct (chain): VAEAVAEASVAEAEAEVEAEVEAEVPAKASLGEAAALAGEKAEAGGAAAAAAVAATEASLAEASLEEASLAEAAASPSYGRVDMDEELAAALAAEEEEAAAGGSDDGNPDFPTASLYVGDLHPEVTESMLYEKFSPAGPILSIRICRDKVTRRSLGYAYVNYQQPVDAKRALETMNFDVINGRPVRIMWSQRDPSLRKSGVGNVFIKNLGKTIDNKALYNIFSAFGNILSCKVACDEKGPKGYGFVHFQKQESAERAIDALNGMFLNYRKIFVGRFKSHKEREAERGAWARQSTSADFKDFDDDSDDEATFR
| Strand | 7-mer Z-score |
| --- | --- |
| CCGGAGA | 0.0334 |
| AGUGCAA | 0.131 |
| UAUACGC | -0.231 |
| GCAGCGU | 0.00617 |
| CGCGCCU | -0.28 |
| UACUCUC | -0.389 |
| CGGUACU | -0.0645 |
| UCAGAUG | 0.0478 |

Study 2 — target: CREB3L4, bZIP domain (human); technique: DHFR protein complementation; medium: yeast; baseline: wild-type JUN-FOS pair; direction: higher = stronger binding
Notes: single substitutions, most at no-binding floor
Starting sequence: JUN, bZIP domain (human); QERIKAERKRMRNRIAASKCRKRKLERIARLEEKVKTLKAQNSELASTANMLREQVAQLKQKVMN; partner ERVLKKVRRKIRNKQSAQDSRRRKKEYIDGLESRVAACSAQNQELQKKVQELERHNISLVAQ
| Substitution | binding fitness [natural log] |
| --- | --- |
| R53K | -1.15 |
| R53G | -1.49 |
| Q41S | -1.48 |
| I28H | -1.52 |
| T48L | -1.45 |
| A49P | -1.57 |
| R30H | -1.06 |
| E32A | -1.44 |

Study 3 — technique: RNA Bind-n-Seq; form: RNA; medium: in vitro; concentration: not given; baseline: input RNA pool; direction: higher = stronger binding
Target: RING finger protein unkempt homolog, zinc fingers 1-6, GST-SBP tag (UNK, Homo sapiens, UniProt Q9C0B0, residues 30-357)
Notes: RNA with constant flanks, human and mouse sites, ends assumed
Target sequence (chain): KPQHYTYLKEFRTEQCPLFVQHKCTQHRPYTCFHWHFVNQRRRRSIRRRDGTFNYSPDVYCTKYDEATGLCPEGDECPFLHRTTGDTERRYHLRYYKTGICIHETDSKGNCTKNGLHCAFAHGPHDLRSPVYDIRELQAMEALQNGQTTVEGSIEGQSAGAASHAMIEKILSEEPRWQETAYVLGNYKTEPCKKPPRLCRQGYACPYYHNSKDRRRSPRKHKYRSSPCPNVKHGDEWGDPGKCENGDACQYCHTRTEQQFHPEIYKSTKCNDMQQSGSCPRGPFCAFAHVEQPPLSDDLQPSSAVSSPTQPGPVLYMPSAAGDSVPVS
| Strand | bound/input enrichment [ratio] |
| --- | --- |
| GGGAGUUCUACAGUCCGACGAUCUUUCCACUUGAUGUCAUCACGCAGAAGGGGUGAAAGAGACUCGGUGACAGAUACAGAAAUGAACACACCUGUGAGUACUGGAUGCCUGUGAGCUUGCCAUUACCUGCACUGCAAAGACACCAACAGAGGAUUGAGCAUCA | 0.0869 |
| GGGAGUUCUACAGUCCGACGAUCAACAUUAAUUUUCCUAAUCUCAAGCAAGACUACCCAGACUGGUCAAGCCGUUGCAAACAAAUCAUGAAGCUCUGGAGAAAGGUUCCAGCAGCUGACAAAGCCCCCUACCUGCAAAAGGCCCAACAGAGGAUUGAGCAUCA | 0.674 |
| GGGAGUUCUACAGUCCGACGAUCGUUGCCAACUUGAAUAGAAUUAAGUUGAACAGUAAACAGUGUAGAAUAUACCGAGUCCGGAUCAAUGACUUGGAGGCCGCUUUUAUUUAUAAUGAUCCAACCUUAGAAGUUUGUCACAGUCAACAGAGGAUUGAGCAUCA | 1.47 |
| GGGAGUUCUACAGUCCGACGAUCGAAAACAUAUUCAGUCGUAUAGUAGAUAUACAUGAACUUAGUGUAAAGUUACUGGGCCAUAUAGAAGAUACUGUAGAAAUGACAGAUGAAGGCAGUCCCCACCCAUUAGUAGGAAGCUGUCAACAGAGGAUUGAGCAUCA | 2.6 |
| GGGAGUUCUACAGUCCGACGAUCUACCAAAUAACUUUAGAGCUCACCCACUUCAGUUGGAGCAAUCCAGUGACCCUUCUAACAGUAUUGAUGGCCCAGAUCAUCUAAGAUCUGCUUCAUCGUUACAUGAAACAAAGAAAGGAACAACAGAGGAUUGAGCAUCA | 0.153 |
| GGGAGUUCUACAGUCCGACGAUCGCGGGCGCAGUGUUAUCCACACAGUGAAAUAAGACUGUCAGAAAAUUUCAGCCUCGUGGAUAGUAAUUUUAAUGCCUGUACCACCUGUUUCUGGACAGUUCUCUUGGAGGAGCGAAGAAUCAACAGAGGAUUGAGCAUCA | 0.507 |
| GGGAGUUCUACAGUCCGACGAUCCAGCACCCCAUCAAACCAGUGGUUCAUCCAACUGCUACCCCAAGCACUGUUCCUUCUAGUCCAUUUACGCUACAGUCUGAUCACCAGCCAAAGAAAUCAUUUGAUGCUAAUGGAGCAUCUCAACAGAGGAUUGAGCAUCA | 0.733 |
| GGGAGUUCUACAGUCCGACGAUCGUUCGAUUACUCUACGCAAAGCGACCAGGAAUUGGACUGUCUCCGUCUCACAGGAGGUACUUAGGCUACAUGUGCGACCUACUUGCAGAUAAGCCCUACCGCCCUCACUUCAAGCCACUCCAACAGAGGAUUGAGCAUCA | 0.0709 |

Mixed results
Starting sequence: viral docking peptide; KGVKRKLFAEDSS; partner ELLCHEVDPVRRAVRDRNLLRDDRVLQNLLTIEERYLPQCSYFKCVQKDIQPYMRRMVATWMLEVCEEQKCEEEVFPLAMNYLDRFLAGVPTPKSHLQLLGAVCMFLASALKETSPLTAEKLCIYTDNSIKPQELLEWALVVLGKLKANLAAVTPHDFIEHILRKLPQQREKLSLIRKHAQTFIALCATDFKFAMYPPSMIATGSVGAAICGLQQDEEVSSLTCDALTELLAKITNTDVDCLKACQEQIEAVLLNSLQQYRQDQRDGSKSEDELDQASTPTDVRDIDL
| Substitution | target | test | system | conditions | how to read | endpoint | value |
| --- | --- | --- | --- | --- | --- | --- | --- |
| D11H | CCND2, cyclin fold, Cln2 fusion (human) | yeast growth competition, sequencing | yeast | weak parent motif | baseline: not given, higher = stronger binding | normalised enrichment score | 0.169 |

A few entries again (study 3):
| Strand | bound/input enrichment [ratio] |
| --- | --- |
| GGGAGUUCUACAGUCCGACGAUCAACAUUAAUUUUCCUAAUCUCAAGCAAGACUACCCAGACUGGUCAAGCCGUUGCAAACAAAUCAUGAAGCUCUGGAGAAAGGUUCCAGCAGCUGACAAAGCCCCCUACCUGCAAAAGGCCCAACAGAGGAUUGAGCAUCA | 0.674 |
| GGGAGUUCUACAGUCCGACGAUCGUUGCCAACUUGAAUAGAAUUAAGUUGAACAGUAAACAGUGUAGAAUAUACCGAGUCCGGAUCAAUGACUUGGAGGCCGCUUUUAUUUAUAAUGAUCCAACCUUAGAAGUUUGUCACAGUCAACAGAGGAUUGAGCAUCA | 1.47 |
